Results from different studies.
Each line is one published result; not all experiments were run side by side. ± marks the error that the study gave.
inhA: Enoyl-[acyl-carrier-protein] reductase [NADH] (inhA, Mycobacterium tuberculosis, UniProt P9WGR1)

The chains behind the UniProt entries cited, without tags or fusion partners. Residues count along the entry.
UniProt P9WGR1, whole entry: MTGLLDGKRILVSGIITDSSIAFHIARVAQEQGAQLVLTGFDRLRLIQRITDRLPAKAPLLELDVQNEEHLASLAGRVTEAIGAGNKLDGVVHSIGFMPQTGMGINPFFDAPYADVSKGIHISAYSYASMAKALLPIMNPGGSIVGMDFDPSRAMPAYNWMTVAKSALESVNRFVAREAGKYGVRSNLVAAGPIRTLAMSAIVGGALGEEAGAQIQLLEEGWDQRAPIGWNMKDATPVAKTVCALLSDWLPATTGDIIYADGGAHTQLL
UniProt P35368, whole entry: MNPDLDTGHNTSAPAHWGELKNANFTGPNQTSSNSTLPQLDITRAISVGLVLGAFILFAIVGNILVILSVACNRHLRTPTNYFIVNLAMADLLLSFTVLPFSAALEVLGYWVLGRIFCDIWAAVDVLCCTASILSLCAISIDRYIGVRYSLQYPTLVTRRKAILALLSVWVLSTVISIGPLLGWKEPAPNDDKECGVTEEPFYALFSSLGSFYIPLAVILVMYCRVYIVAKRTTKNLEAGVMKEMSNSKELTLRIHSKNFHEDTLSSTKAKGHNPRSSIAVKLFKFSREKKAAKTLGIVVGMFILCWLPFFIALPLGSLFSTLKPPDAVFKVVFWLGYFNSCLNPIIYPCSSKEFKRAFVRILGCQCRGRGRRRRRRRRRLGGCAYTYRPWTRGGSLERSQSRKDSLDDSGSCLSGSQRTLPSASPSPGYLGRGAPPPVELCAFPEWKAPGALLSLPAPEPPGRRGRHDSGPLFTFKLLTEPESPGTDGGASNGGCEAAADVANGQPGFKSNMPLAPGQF
UniProt P9WNX1, whole entry: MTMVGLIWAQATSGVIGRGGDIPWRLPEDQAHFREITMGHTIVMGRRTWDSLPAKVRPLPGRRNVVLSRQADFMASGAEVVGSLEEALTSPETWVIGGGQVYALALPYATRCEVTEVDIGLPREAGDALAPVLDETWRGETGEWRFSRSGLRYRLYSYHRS
UniProt P06241, whole entry, looked up: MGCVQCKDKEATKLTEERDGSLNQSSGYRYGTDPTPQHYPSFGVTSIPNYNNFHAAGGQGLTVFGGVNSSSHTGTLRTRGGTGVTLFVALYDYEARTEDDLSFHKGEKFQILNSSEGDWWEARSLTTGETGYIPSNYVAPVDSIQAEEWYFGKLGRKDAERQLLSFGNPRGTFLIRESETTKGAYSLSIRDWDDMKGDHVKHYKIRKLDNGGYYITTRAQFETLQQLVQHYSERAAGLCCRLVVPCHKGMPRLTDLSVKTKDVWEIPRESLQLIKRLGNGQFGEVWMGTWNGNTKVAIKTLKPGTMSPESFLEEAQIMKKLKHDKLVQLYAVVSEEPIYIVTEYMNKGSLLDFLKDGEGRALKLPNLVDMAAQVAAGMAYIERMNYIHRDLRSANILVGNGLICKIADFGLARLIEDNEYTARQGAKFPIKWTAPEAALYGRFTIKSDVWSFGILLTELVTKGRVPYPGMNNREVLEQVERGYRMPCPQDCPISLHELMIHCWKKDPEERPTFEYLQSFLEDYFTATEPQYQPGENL
UniProt P06241, whole entry M250P/L253P/T254P, looked up: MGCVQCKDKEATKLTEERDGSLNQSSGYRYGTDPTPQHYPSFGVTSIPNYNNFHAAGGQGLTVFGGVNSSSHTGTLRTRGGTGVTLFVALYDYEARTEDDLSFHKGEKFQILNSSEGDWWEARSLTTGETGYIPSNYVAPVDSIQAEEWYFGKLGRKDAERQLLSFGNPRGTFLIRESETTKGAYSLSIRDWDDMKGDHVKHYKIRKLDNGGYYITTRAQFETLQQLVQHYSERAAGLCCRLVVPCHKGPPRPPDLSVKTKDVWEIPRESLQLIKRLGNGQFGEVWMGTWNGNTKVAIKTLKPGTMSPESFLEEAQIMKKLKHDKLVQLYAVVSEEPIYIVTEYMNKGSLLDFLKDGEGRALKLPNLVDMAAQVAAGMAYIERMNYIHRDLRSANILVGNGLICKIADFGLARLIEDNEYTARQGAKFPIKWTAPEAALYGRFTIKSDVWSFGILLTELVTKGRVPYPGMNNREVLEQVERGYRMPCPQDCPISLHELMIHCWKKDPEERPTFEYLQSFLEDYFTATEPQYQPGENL
UniProt P28223, whole entry: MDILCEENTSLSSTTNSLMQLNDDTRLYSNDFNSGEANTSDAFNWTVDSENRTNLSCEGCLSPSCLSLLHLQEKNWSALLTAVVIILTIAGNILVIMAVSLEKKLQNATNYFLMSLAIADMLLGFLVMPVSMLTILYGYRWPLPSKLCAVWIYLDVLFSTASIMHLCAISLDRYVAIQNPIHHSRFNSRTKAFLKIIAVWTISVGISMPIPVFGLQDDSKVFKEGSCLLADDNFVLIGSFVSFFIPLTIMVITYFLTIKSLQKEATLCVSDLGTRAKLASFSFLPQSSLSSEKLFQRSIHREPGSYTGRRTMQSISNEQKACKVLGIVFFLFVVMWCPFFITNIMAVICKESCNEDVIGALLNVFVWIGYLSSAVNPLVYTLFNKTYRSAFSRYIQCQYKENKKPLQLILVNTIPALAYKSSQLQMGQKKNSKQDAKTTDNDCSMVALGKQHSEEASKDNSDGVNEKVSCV
UniProt P41143, whole entry: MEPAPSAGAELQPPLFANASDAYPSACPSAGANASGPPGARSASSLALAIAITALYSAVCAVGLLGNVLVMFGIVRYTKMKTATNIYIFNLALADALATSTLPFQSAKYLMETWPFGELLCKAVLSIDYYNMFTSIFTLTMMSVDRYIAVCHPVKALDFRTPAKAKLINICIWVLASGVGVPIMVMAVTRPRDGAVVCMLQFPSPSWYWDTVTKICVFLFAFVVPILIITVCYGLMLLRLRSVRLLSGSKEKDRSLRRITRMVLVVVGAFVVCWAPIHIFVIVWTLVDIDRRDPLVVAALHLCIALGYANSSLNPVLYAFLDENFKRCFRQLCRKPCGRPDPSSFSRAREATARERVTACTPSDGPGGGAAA
UniProt P0C0J0, 146-398 limits assumed: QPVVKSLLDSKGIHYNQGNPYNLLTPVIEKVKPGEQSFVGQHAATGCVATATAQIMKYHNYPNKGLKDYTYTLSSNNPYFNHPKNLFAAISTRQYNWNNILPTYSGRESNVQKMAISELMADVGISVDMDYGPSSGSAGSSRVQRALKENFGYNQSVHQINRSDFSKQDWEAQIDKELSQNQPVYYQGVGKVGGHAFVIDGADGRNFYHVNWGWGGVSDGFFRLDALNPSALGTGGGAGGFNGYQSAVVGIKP
UniProt P22303, whole entry, looked up: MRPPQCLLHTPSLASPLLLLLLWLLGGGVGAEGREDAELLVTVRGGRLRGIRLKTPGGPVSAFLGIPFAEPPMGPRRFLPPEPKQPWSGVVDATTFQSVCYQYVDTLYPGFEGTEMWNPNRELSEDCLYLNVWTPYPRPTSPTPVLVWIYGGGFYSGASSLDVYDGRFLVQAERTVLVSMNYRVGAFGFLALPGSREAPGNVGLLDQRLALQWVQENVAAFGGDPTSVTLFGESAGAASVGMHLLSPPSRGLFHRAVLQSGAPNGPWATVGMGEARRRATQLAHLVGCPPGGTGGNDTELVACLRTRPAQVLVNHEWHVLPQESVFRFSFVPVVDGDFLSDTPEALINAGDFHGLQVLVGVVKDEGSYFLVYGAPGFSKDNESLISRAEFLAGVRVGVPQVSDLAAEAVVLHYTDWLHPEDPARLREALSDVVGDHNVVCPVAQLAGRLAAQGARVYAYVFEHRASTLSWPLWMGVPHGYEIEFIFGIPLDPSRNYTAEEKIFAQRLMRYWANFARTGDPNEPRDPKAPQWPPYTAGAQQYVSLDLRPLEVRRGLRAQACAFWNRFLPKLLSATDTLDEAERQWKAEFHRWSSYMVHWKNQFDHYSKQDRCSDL

SMILES = COc1ccc(CN[C@@H]2CO[C@H](C(c3ccccc3)c3ccccc3)C[C@H]2O)cc1; tested on = Alpha-1B adrenergic receptor (ADRA1B, Homo sapiens, UniProt P35368); test = radioligand binding; conditions = 10 µM, added: [3H]prazosin; endpoint = inhibition; result = 24.8%
SMILES = CN(Cc1cnc2nc(N)nc(N)c2n1)c1ccc(C(=O)N[C@@H](CCC(=O)NCCO)C(=O)NCCO)cc1; tested on = Dihydrofolate reductase (folA, Mycobacterium tuberculosis, UniProt P9WNX1); endpoint = Ki; result = 0.0988 ± 0.0182 µM
SMILES = Nc1ncnc2c1c(-c1cnc3[nH]ccc3c1)nn2C1CCCC1; tested on = Tyrosine-protein kinase Fyn (FYN, Homo sapiens, UniProt P06241, G531I/P530I/Q529E); test = inhibitor; endpoint = Ki; result = 0.059 µM
SMILES = C#CCOCCC(=O)N[C@H](Cc1ccccc1)C(=O)N[C@@H](Cc1ccccc1)C(=O)N[C@@H](CCCNC(N)=O)C(=O)CCl; tested on = Replicase polyprotein 1ab, main protease (rep, Severe acute respiratory syndrome coronavirus 2, UniProt P0DTD1); test = enzyme activity, inhibitor; endpoint = Ki; result = 0.2 ± 0.05 µM
SMILES = CC(C)n1nc(-c2ccc3c(c2)OCO3)c2c(N)ncnc21; tested on = Tyrosine-protein kinase Fyn (FYN, Homo sapiens, UniProt P06241, L253P/M250P/T254P); test = inhibitor; endpoint = Ki; result = 0.12 µM
SMILES = N#Cc1ccccc1Oc1ccc(Cn2cc(C3CC3)nn2)cc1O; tested on = inhA; test = enzyme activity, slow-onset inhibitor; conditions = 20 °C, initial EI complex; endpoint = Ki; result = 99 ± 16 µM
SMILES = CNC(C)C(=O)c1ccc(Br)cc1 (racemic); tested on = 5-hydroxytryptamine receptor 2A (HTR2A, Homo sapiens, UniProt P28223); conditions = added: [3H]ketanserin; endpoint = Ki; result = 6.3 µM
SMILES = C[C@H](CS)C(=O)N[C@@H](Cc1c[nH]c2ccccc12)C(=O)O; tested on = Escherichia coli; system = VIM-1 producing; conditions = 50 µM, added: meropenem; endpoint = MIC of meropenem; result = 8 mg/L
SMILES = CN1CC[C@]23c4c5ccc(O)c4O[C@H]2c2ncc(-c4ccc(Cl)cc4)cc2C[C@@]3(OCCCc2ccccc2)[C@H]1C5; tested on = Delta-type opioid receptor (OPRD1, Homo sapiens, UniProt P41143); test = binding; system = CHO membranes; endpoint = Ki; result = 0.0051 ± 0.0016 µM
SMILES = NCCNCCSc1ccccc1; test = spectrophotometry; conditions = pH 6.0; endpoint = pKa; result = 6
SMILES = N#Cc1ccccc1Oc1ccc(Cn2cc(C3CCCC3)nn2)cc1O; tested on = inhA; test = enzyme activity, slow-onset inhibitor; conditions = 20 °C, initial EI complex; endpoint = Ki; result = 83 ± 17 µM
SMILES = NC[C@@H](NC[C@@H]1CCCN1C[C@@H](CO)NC[C@@H](NCCC12CC3CC(CC(C3)C1)C2)c1ccccc1)c1ccccc1; tested on = Klebsiella pneumoniae; test = bacterial growth; conditions = 24 µM, fold shift of IC90, added: amikacin; endpoint = potentiation of amikacin; result = 3.2 fold
SMILES = Cc1ccccc1Oc1ccc(Cn2cc(C3CC3)nn2)cc1O; tested on = inhA; test = enzyme activity, slow-onset inhibitor; conditions = 20 °C, initial EI complex; endpoint = Ki; result = 17 ± 3 µM
SMILES = C=CC(=O)Nc1cc(-n2c(=O)ccc3cnc4ccc(-c5cn[nH]c5)cc4c32)ccc1C; tested on = TMD8; test = cell growth; conditions = 72 h; endpoint = GI50; result = 0.31 µM
SMILES = Oc1cc(Cn2cc(C3CC3)nn2)ccc1Oc1ccccc1Cl; tested on = inhA; test = enzyme activity, slow-onset inhibitor; conditions = 20 °C, initial EI complex; endpoint = Ki; result = 16 ± 10 µM
SMILES = CC(C)n1nc(-c2ccc3cc(OCc4cccc(Cl)c4)ccc3c2)c2c(N)ncnc21; tested on = Tyrosine-protein kinase Fyn (FYN, Homo sapiens, UniProt P06241, G534I/P533E/Q532E); test = inhibitor; endpoint = Ki; result = 0.36 µM
SMILES = N#C[C@H](Cc1cccc(N=S(=O)(F)N2CCC(C(N)=O)CC2)c1)NC(=O)OCc1ccccc1 (stereo partly shown); tested on = Streptopain (Streptococcus pyogenes, UniProt P0C0J0); test = enzyme activity, inhibitor; endpoint = Ki; result = 0.018 ± 0.001 µM
SMILES = NC[C@@H](NC[C@@H]1CCCN1C[C@@H](CO)NC[C@@H](NCCC1CC2CCC1C2)c1ccccc1)c1ccccc1 (stereo partly shown); tested on = Escherichia coli; test = bacterial growth; conditions = 8 µM, fold shift of IC50, added: amikacin; endpoint = potentiation of amikacin; result = 1.6 fold
SMILES = c1cc[n+](CCCCCCCCCC[n+]2cccc3ccccc32)cc1; tested on = Acetylcholinesterase (ACHE, Homo sapiens, UniProt P22303); test = enzyme activity, inhibitor; endpoint = Ki; result = 0.4 µM

A few entries again:
SMILES = c1cc[n+](CCCCCCCCCC[n+]2cccc3ccccc32)cc1; tested on = Acetylcholinesterase (ACHE, Homo sapiens, UniProt P22303); test = enzyme activity, inhibitor; endpoint = Ki; result = 0.4 µM
SMILES = C[C@H](CS)C(=O)N[C@@H](Cc1c[nH]c2ccccc12)C(=O)O; tested on = Escherichia coli; system = VIM-1 producing; conditions = 50 µM, added: meropenem; endpoint = MIC of meropenem; result = 8 mg/L
